Assay results gathered from unrelated publications.
Protocols differ between the studies behind these lines. Several values in a cell are separate wells, animals, samples, runs or records. ± marks the error that the study gave.

`COc1ccc(F)cc1C(=O)NCc1ccc(-c2nn([C@@H](C)C(F)(F)F)c(N)c2C(N)=O)cc1`: “recovery of dose” 28.2% (human male, urine and feces; oral, 200 mg, time not given, with: [14C] label).
`CC[C@H](C)CCCCC(=O)N[C@@H](CCN)C(=O)N[C@H](C(=O)N[C@@H](CCN)C(=O)N[C@H]1CCNC(=O)[C@H]([C@@H](C)O)NC(=O)[C@H](CCN)NC(=O)[C@H](CCN)NC(=O)[C@H](CC(C)C)NC(=O)[C@@H](Cc2ccccc2)NC(=O)[C@H](CCN)NC1=O)[C@@H](C)O` gave a clearance of 35 mL/min (mild renal impairment; intravenous infusion, 0.75 mg/kg single dose over 1 h, arithmetic mean).
With `C=CC(=O)NC1CCN(c2ncc3ncnc(Nc4ccc(Oc5ccc6c(c5)ncn6C)c(C)c4)c3n2)CC1` the renal clearance was 0.115 to 0.594 mL/min (healthy male volunteers, urine; oral, 60 mg, 0 to 24 h).
`Cc1ccn2cc(-c3ccccn3)nc2c1` gave a CC50 of > 63.1 µM (peritoneal macrophages, Swiss mice; 5 days, 5% fetal calf serum).
`CCOc1c([C@H](C)n2nc(C)c3c(N)ncnc32)cc(Cl)c(F)c1[C@@H]1CNC(=O)C1` has a Cmax of 1270 ± 655 nM (patients, monotherapy; oral, 20 mg once daily, cycle 1 day 1).
The treatment-related vomiting of `C=CCN1CC(=O)N2[C@@H](Cc3ccc(O)cc3F)C(=O)N(Cc3cccc(N4CC(N5CCN(CC)CC5)C4)n3)C[C@@H]2N1C(=O)NCc1ccccc1` is reported as 0% (advanced solid tumour patients; oral, 80 mg twice daily, grade ≥3, dose-escalation).
For `C[C@@H]1OC(=O)[C@H](Cc2ccccc2)[C@H]1O`, the DT50 was 1.45 days (aerobic dark soil incubation; sandy loam soil; 20 °C, modelling endpoint).
`Cn1cc(-c2cn3nccc3c(-c3cnn([C@]4(CC#N)C[C@@H](C#N)C4)c3)n2)cn1` — result for “apparent clearance CL/F”: 63.2 L/h (healthy humans fasted, plasma; 100 mg single dose, geometric mean).
`Cn1cc(Nc2nccc(-c3ccc4c(c3)CN(C3COC3)CC[C@H]4NC(=O)c3cn(C(C)(C)C)nn3)n2)cn1` — result for “plasmablast count change”: 128% (human, whole blood; 50 mg twice daily, day 7; relative to: pre-dose baseline).
`Cc1ccc([C@@H]2O[C@H](CO)[C@@H](O)[C@H](O)[C@H]2O)cc1Cc1ccc(-c2ccc(F)cc2)s1` — result for “urinary magnesium excretion change”: 10.7 mg (Japanese type 2 diabetes patients; 100 mg, day 6, 24 h urine collection; relative to: baseline).
`CN1C[C@H](COc2nccc3c(NCc4ccco4)cc(Cl)nc23)OC1=O` has a tissue/plasma ratio of 0.75 (C57BL/6 mouse, heart; oral, 30 mg/kg, 0.5 h; relative to: heart over plasma).
With `COc1cccc(-c2n[nH]c(SCc3ccccn3)n2)c1OC` the plasma concentration was 5310 ng/mL (Sprague-Dawley rats, both sexes; oral dietary, 100 mg/kg/day, day 90, 0 h).
`O=C(Nc1nc2cccc(-c3ccc(CN4CCS(=O)(=O)CC4)cc3)n2n1)C1CC1` — result for “treatment-emergent adverse events”: 0% (item: somnolence; rheumatoid arthritis patients; oral, 30 mg once daily, 4 weeks, any relatedness).
For `Cc1ccc(O)c(-n2nc3ccccc3n2)c1`, “daily dermal uptake, percentile” read 2250 ng/kg body weight/day (exposure assessment; human, age 21-60 years; concentration not given, cream, 95th percentile).
For `CN1CCC[C@H](CN2c3ccccc3Sc3ccccc32)C1.Cl`, the Cmax was 10200 ng/g (fasted female ICR mouse, lung; oral, 16 mg/kg).
`Cc1nc2cccc(OCC(C)(C)C(=O)NC(C)C)c2c(N)c1C(=O)O` — result for “micronucleated NCE per 2000 PCE”: 0.9 (male Swiss albino CD-1 mouse, bone marrow; oral, 1000 mg/kg, 36 h).
With `C/C(=N\NC(=O)Cn1c(-c2ccc(S(C)(=O)=O)cc2)nc2cc(Cl)ccc21)c1ccc(Cl)cc1` the ulcer index was 7.6% (rat, stomach; concentration not given, 4 h; relative to: indomethacin).
`Cc1cc(NC2CCN(C(=O)OC3CCN(C(=O)/C=C/CN(C)C)C3)CC2)n2ncc(C(C)C)c2n1` (stereo not drawn) — result for “patients with adverse event”: 5% (Phase I dose escalation CTCAE v4.0, item: small intestinal obstruction; patients with advanced solid tumours; dose not given, QD dosing grade 3 or higher).
`COc1c(C)c2c(c(O[C@@H]3O[C@H](C(=O)O)[C@@H](O)[C@H](O)[C@H]3O)c1C/C=C(\C)CCC(=O)O)C(=O)OC2` — result for “AUClast geometric mean ratio”: 73% (healthy humans; oral, dose not given, with: isavuconazole co-administration; relative to: with isavuconazole over MMF alone).
`C=CC(=O)N1CCC(c2ccc(C(N)=O)c(-c3ccc(Oc4ccccc4)cc3)n2)CC1` — result for “number of treatment-related AEs”: 39 (relapsed/refractory mantle cell lymphoma patients; oral, dose not given, part, all doses, CTCAE v4.03).
Under “grade ≥3 fatigue patients”, `Cc1ccc(C(=O)N(CCCN)C(c2nc3snc(C)c3c(=O)n2Cc2ccccc2)C(C)C)cc1` (stereo not drawn) is recorded as 33% (human patients; intravenous, 10 mg/day).
With `N#C/N=S(\c1ccc(C(F)(F)F)cc1)C1CC1` (stereo not drawn) the metabolic stability was < 23% (human liver microsomes; relative to: hepatic blood flow).
With `Cc1cccc(CNC(=O)c2cn(CCNC(=O)c3ccccc3Sc3c([N+](=O)[O-])ncn3C)c3cc4c(cc3c2=O)OC(F)(F)O4)n1` the bioavailability was 24.1 ± 11.3% (Sprague-Dawley rat, male, plasma; intramuscular, 30 mg/kg of parent drug).
`C=CC(=O)N1CCC(Oc2cc3c(Nc4ccc(Cl)c(Cl)c4F)ncnc3cc2OC)CC1` has a Vz/F ratio of 0.33 fold (Sprague-Dawley rat male, plasma; oral, 2 mg/kg, with: schisandrin A 20 mg/kg daily 1 weeks pretreatment; relative to: no pretreatment).
`CCc1cc(C(=O)NC)c2nccc(N3CCc4c(cc(Cn5ccnc5)cc4-c4cn(C)nc4C(F)(F)F)C3=O)c2c1` — result for “serum RBC change”: -1.93% (Sprague Dawley rats; oral, 100 mg/kg once daily, 7 days; relative to: vehicle).
`Cc1cc(C)c(CNC(=O)c2cc(Cl)c3c(c2C)O[C@@](C)([C@H]2CC[C@H](N(C)C)CC2)O3)c(=O)[nH]1` has a cumulative excretion of 15.6% (item: total radioactivity; human, fasted, urine; oral, 200 mg [14C] single dose, 0 to 360 h; relative to: dose).
`COc1cccc(OC)c1-c1cc(C(=O)NC2(C(=O)O)C3CC4CC(C3)CC2C4)nn1-c1ccc(C(=O)N(C)CCCN(C)CCCN(C)C(=O)CN2CCN(CC(=O)[O-])CCN(CC(=O)[O-])CCN(CC(=O)[O-])CC2)cc1C(C)C.[177Lu+3]` (stereo not drawn): “tumour-to-small intestine ratio” 58.6 (mouse HT-29 xenograft; 72 h, biodistribution; relative to: tumour over small intestine).
`NC1(C(=O)N[C@@H](CCO)c2ccc(Cl)cc2)CCN(c2nc[nH]c3nccc2-3)CC1`: “incidence of Amnesia” 0% (metastatic CRPC patients; 400 mg b.i.d., grade 3 to 4, treatment-related, with: enzalutamide 160 mg daily).
`O=C(N[C@H](Cc1c[nH]c2ccccc12)C(=O)Nc1ccncc1)c1ccc(-c2cc(C(F)(F)F)ccc2F)cc1F` gave a concentration of 170 nM (Swiss Webster mouse, female, fat; oral, 50 mg/kg, 2 h, 20% HPβCD vehicle).
With `Cc1cccc(CNC(=O)c2cn(CCNC(=O)c3ccccc3S)c3cc4c(cc3c2=O)OC(F)(F)O4)n1` the bioavailability was 23.7 ± 5% (Sprague-Dawley rat, male, plasma; intramuscular, 30 mg/kg of parent drug).
With `COc1ccnc(C(=O)N[C@@H](CO)C(=O)O)c1OCOC(=O)C(C)C` the DT50 water was 5.66 days (Swiss Lake sand sediment, aerobic dark; 20 °C).
For `Nc1ncnc2c1ncn2[C@H]1C[C@@H]2OP(=O)(O)OC[C@H]3O[C@@H](n4cnc5c(N)ncnc54)C[C@@H]3OP(=O)(O)OC[C@H]2O1`, the eosinophil percentage was 6.58 ± 3.12% (non-tumor-bearing mice, blood; intravenous, 1 mg/kg, toxicity study).
For `CCCCCN(C)CCC(O)(P(=O)(O)O)P(=O)(O)OP(=O)(O)OC[C@H]1O[C@@H](n2ccc(N)nc2=O)C(F)(F)[C@@H]1O` (stereo partly drawn), “hydrolysis rate constant” read 0.091 h⁻¹ (HEPES buffer; pH 8.2, 37 °C).
With `CN(C(=O)n1cnc(-c2ccc[n+]([O-])c2)c1)[C@H]1CC[C@H](O)CC1` the tissue concentration was 14.4 ± 0.7 ng/g (rat, hippocampus; oral, 10 mg/kg daily for 5 days, 4 h).
Under “postural dizziness incidence”, `O=C(Nc1cnccc1Cl)N1CCN(Cc2ccc3c(c2)OC(F)(F)O3)CC1` is recorded as 33.3% (multiple ascending dose; elderly men and women; 100 mg, treatment-emergent adverse events).
For `O=C(/C=C/c1cccc(S(=O)(=O)Nc2ccccc2)c1)NO`, the Vss was 20.3 L/m² (human patients, plasma; 2000 mg/m^2).
The AUC(0-tau) of `Cl.[2H]C([2H])([2H])CC(=O)c1cnc(NC(=O)C2CC2)cc1Nc1cccc(-c2ncn(C([2H])([2H])[2H])n2)c1OC` is reported as 1310 ng·h/mL (geometric mean; human; oral, 20 mg once daily, day 7, fasted, liquid, multiple dose).
For `CN[C@@H](C)C(=O)N[C@H]1CN(S(=O)(=O)c2cccc(S(=O)(=O)N3CC[C@H]4CC[C@@H](C(=O)NC(c5ccccc5)c5ccccc5)N4C(=O)[C@@H](NC(=O)[C@H](C)NC)C3)c2)CC[C@H]2CC[C@@H](C(=O)NC(c3ccccc3)c3ccccc3)N2C1=O`, the AUC(0-t) was 938 ± 261 ng·h/mL (LC-MS/MS; human, advanced solid tumours, plasma; intravenous, 45 mg weekly, day 1).
Under “participants with TEAE”, `Cc1ccc(Sc2ccccc2N2CCNCC2)c(C)c1` is recorded as 16.7% (item: hot flush; healthy adult women; oral, 5 mg daily, 12 days).
For `COc1ccc2c(=O)n(C)c(-c3ccccc3)nc2c1`, the tissue concentration was 79.2 ng/g (male Sprague-Dawley rat, testis; oral, 30 mg/kg, 4 h).
`CNC(=O)c1ccc(-c2cnc3ncc(Cc4ccc5ncccc5c4)n3n2)cc1F` — result for “patients with adverse event”: 8% (item: Insomnia, all grades; cancer patients; oral, 600 mg twice daily, expansion cohort, any causality).
`CCN1/C(=C/C(C)=O)Sc2ccc(F)cc21` — result for “mean blood pressure”: 92 ± 7 mmHg (cynomolgus monkey; oral, 100 mg/kg, 6 h post-dose).
`OB1NN=Cc2ccccc21` gave a peak area of 303000 a.u. and 328000 a.u. and 327000 a.u. (stability, UPLC-MS; diluted serum; 7 day, 37 °C; higher = more compound remaining).
For `CCCCc1nc2cc(/C=C/C(=O)NO)ccc2n1CCN(CC)CC`, the body weight was 97.4% (mouse, HEL 92.1.7 subcutaneous xenograft; 125 mg/kg every other day, day 17; relative to: baseline).
`C=CCn1c(=O)c2cnc(Nc3ccc(N4CCN(C)CC4)cc3)nc2n1-c1ccc2c(n1)[C@@](O)(CC)CC2` gave a Cmax of 5670 ng/mL (female NOD/SCID mouse OVCAR-3 xenograft, plasma; oral, 90 mg/kg once daily, :3).
`N#Cc1ccc2c(c1)[C@H]1CCCN(C(=O)c3ccc4[nH]cnc4c3)[C@H]1C2` has a DHEA-S of 8 µmol/L (human females; 80 mg, end of trial).
Under “subjects with adverse event”, `CC(C)(C(=O)N1CCOc2c(C#N)cncc2C1)C(F)F` is recorded as 0% (item: upper abdominal pain; human; oral, 20 mg twice daily, 14 days, multiple ascending dose).
The tissue/plasma ratio of `Cc1ccc2c(c1)C(=O)[C@]1(O)CCN(c3ccc4nc(C)ccc4c3)C1=N2` is reported as 1.6 (mouse; intraperitoneal, 10 mg/kg, 30 min; relative to: brain over plasma).
For `COc1ccc([C@@H](O)c2cc(-c3ncnc4cc(N5CCOCC5)ccc34)c(F)cc2Cl)nn1`, the renal clearance was 0.827 mL/min (geometric mean; healthy volunteers, urine; oral, 100 mg, high-fat fed tablet).
For `CNC(=O)c1ccc(-c2cnc3ncc(Cc4ccc5ncccc5c4)n3n2)cc1F`, the AUC(0-inf) was 9130 ng·h/mL (human severe hepatic impairment; oral, 200 mg single dose, covariate-adjusted geometric mean).
For `OC[C@H]1O[C@@H](c2ccc(F)c(Cc3cc4ccccc4s3)c2)[C@H](O)[C@@H](O)[C@@H]1O`, “hypoglycaemia-related adverse event” read 5% (Japanese patients, type 1 diabetes; oral, 50 mg/day, onset day 10; relative to: patients).
The DT50 of `COc1ccnc(C(=O)NCC(=O)O)c1O` is reported as 21.6 days (aerobic dark soil incubation; sandy loam soil; 20 °C, persistence endpoint).
For `CNCc1ccc(-c2[nH]c3cc(F)cc4c3c2CCNC4=O)cc1`, “abdominal distension incidence” read 19.2% (patients; oral, 600 mg twice daily, grade 1).
Under “incidence of pyrexia”, `CCO[C@H]1CCN(Cc2c(OC)cc(C)c3[nH]ccc23)[C@H](c2ccc(C(=O)O)cc2)C1` is recorded as 0% (PNH patients, active haemolysis; oral, 50 mg, treatment).
